Experimental data gathered from unrelated publications.
Numbered parts are unrelated; each lists some results of a single study. Values joined by “and” are separate records of one study, mostly repeats; a detail may differ.
UniProt Q9Y6R4, sequence (whole entry, looked up): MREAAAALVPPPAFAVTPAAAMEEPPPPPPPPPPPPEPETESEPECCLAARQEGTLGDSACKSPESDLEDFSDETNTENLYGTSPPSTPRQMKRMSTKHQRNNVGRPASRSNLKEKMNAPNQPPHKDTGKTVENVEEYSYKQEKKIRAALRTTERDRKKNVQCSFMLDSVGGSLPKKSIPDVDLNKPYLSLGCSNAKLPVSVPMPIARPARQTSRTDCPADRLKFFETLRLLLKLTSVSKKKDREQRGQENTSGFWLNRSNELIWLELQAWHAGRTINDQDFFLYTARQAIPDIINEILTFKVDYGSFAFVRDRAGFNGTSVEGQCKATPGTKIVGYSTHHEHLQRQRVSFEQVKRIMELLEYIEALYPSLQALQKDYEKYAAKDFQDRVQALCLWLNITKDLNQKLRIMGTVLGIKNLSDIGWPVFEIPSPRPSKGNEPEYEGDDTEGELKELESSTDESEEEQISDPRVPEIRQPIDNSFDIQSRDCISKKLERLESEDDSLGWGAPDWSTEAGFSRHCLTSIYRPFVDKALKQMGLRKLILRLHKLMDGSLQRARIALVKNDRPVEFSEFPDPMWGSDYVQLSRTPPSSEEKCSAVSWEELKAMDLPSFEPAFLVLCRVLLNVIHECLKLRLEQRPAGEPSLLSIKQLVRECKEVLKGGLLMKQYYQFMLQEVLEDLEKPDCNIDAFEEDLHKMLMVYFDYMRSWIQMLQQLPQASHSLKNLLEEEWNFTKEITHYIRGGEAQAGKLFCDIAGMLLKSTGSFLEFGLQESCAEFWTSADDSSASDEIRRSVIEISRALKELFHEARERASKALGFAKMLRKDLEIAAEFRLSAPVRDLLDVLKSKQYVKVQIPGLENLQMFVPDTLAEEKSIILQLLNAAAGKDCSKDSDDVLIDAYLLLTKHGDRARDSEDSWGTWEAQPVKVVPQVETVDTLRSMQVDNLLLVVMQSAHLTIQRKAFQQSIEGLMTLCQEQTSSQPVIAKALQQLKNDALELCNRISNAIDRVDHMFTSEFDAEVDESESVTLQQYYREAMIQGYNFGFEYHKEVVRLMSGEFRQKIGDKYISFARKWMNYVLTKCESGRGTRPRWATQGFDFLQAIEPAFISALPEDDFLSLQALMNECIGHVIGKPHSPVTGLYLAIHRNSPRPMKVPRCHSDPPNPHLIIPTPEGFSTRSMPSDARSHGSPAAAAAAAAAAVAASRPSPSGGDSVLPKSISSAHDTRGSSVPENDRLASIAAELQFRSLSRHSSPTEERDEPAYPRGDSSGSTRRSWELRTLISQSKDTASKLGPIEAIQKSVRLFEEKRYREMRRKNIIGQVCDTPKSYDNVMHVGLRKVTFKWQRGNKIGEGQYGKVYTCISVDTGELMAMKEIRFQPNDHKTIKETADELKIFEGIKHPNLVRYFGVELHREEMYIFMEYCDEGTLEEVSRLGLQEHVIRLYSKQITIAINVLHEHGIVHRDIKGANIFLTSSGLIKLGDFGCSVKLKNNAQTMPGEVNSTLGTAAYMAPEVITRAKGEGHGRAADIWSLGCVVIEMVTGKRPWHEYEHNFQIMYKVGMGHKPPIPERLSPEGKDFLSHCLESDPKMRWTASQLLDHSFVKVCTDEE
UniProt O95382, sequence (whole entry, looked up): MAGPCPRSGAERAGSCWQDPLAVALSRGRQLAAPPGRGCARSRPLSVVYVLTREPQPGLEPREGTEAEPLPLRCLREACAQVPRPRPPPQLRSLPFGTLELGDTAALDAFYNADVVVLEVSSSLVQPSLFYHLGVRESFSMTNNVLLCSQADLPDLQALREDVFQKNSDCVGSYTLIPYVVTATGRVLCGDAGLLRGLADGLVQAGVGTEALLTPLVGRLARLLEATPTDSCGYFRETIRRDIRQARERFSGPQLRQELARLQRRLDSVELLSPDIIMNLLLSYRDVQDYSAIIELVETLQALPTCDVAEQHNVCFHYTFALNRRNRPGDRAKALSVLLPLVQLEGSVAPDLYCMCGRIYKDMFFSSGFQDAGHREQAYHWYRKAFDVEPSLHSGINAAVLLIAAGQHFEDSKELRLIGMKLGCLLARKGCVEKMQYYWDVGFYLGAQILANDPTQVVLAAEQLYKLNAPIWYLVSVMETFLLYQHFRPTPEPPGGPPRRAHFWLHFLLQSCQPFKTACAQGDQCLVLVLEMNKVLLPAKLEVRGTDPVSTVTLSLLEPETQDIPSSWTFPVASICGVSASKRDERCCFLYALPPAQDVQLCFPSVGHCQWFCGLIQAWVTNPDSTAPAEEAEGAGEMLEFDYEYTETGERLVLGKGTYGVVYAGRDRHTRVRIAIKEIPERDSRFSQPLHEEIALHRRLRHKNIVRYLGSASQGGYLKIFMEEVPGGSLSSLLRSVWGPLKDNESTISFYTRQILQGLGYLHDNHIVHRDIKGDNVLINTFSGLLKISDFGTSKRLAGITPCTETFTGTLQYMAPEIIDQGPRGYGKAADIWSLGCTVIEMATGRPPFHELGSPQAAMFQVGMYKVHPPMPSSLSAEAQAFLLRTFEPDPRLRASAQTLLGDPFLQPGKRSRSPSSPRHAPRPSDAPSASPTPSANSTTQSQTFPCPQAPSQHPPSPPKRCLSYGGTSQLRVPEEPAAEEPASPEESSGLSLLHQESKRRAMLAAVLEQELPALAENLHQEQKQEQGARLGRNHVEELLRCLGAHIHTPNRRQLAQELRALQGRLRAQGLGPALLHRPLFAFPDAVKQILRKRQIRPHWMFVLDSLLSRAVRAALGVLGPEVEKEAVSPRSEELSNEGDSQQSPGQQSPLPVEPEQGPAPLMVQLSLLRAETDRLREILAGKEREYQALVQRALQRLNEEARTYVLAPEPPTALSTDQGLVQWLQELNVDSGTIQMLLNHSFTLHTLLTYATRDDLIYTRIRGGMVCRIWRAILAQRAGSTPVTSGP
UniProt P11802, sequence (whole entry, looked up): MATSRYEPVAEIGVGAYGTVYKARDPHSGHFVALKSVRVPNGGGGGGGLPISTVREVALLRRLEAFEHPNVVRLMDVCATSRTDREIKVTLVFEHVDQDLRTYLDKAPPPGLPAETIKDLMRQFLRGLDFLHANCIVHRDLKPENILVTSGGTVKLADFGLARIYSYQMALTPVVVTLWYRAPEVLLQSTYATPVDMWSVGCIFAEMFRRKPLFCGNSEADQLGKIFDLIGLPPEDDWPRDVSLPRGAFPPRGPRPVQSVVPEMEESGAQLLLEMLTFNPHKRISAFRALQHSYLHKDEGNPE
UniProt P46734, sequence (whole entry, looked up): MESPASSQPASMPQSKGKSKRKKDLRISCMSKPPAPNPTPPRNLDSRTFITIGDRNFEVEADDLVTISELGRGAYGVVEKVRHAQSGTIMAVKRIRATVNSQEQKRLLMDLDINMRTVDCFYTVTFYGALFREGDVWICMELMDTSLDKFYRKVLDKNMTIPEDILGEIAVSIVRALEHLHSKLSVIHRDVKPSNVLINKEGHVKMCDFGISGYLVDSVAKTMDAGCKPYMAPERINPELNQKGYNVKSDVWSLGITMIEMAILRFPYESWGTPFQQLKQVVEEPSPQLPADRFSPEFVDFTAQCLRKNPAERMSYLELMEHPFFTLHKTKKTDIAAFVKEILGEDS

Study 1
Compound: O=C(N1CCS(=O)(=O)CC1)N1C[C@H](c2ccc(OC(F)(F)F)cc2)C[C@H](c2nc(C3CC3)no2)C1
Observed: cell-free assay
Technique: competition with immobilised ligand
Concentration: 1 µM
target | remaining binding [%]
Dual specificity mitogen-activated protein kinase kinase 3 (MAP2K3, Homo sapiens, UniProt P46734) | 100
MAP/microtubule affinity-regulating kinase 4 (MARK4, Homo sapiens, UniProt Q96L34) | 100
Mitogen-activated protein kinase kinase kinase 6 (MAP3K6, Homo sapiens, UniProt O95382) | 91
Cyclin-dependent kinase 4, with cyclin D3 (CDK4, Homo sapiens, UniProt P11802) | 88
Mitogen-activated protein kinase kinase kinase 4 (MAP3K4, Homo sapiens, UniProt Q9Y6R4) | 83
Receptor-interacting serine/threonine-protein kinase 4 (RIPK4, Homo sapiens, UniProt P57078) | 97

Study 2
Target: Calcium/calmodulin-dependent protein kinase type II subunit alpha (CAMK2A, Homo sapiens, UniProt Q9UQM7)
UniProt Q9UQM7, sequence (whole entry, looked up): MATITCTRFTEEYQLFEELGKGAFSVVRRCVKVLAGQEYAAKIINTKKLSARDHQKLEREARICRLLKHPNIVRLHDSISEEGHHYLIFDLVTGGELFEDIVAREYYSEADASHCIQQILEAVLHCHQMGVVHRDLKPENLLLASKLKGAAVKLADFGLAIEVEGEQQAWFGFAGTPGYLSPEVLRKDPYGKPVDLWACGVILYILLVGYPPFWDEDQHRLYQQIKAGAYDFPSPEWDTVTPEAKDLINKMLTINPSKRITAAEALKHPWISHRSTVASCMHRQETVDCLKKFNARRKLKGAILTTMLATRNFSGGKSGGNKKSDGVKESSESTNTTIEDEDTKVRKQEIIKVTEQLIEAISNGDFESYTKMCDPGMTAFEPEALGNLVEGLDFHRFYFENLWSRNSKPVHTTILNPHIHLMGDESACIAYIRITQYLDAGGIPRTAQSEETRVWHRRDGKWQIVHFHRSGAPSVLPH
Observed: enzyme activity
Action: inhibitor
Concentration: 10 µM
Compound | inhibition [%]
C=C(CCC=C(C)C)[C@H]1CC[C@]2(C)[C@@H]1[C@H](O)C[C@@H]1[C@@]3(C)CC[C@H](O)C(C)(C)[C@@H]3[C@@H](O[C@@H]3O[C@H](CO)[C@@H](O)[C@H](O)[C@H]3O[C@@H]3O[C@@H](C)[C@H](O)[C@@H](O)[C@H]3O)C[C@]12C | -17
COc1cc(OC)c(C(=O)CCCN2CCCC2)c(OC)c1 | -6
OC[C@H]1O[C@@H](Oc2c(O)cc(O)cc2/C=C/c2ccc(O)cc2)[C@H](O)[C@@H](O)[C@@H]1O | -1
c1ccc2c(CC3=NCCN3)cccc2c1 | -11
CCOC(=O)CC(C)O (centres unmarked) | -9
OC[C@@H](O)[C@@H](O)[C@H](O)[C@H](O)CO (racemic) | 17

Study 3
Target: Ephrin type-A receptor 3 (EPHA3, Homo sapiens, UniProt P29320)
UniProt P29320, sequence (whole entry, looked up): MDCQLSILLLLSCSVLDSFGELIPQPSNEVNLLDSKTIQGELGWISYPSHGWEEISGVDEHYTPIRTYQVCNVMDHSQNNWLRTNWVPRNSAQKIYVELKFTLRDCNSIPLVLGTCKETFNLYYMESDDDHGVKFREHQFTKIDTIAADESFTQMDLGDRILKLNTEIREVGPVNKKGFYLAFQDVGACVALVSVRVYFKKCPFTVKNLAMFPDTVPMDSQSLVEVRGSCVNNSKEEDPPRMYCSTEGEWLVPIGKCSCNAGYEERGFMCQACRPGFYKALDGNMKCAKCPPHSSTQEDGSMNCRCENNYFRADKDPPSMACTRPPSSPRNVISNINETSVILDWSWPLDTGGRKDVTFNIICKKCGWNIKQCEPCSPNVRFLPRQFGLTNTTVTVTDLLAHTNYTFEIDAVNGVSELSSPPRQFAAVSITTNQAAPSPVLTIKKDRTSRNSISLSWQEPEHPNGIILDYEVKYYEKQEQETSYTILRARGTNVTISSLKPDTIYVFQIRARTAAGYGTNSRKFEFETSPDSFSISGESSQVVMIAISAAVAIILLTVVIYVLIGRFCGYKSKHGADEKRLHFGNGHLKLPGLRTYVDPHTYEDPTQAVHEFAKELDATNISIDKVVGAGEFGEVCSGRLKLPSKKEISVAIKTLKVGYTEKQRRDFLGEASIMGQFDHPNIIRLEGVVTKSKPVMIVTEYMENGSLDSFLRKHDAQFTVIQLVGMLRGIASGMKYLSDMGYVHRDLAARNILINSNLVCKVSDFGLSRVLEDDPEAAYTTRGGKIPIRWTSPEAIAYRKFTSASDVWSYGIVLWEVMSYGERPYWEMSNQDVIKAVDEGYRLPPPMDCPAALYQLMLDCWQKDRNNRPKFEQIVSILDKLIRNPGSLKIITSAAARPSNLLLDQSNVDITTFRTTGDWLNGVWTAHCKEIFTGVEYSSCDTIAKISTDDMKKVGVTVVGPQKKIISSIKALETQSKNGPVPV
Observed: enzyme activity
Action: inhibitor
Concentration: 0.5 µM
Baseline: control
SMILES | remaining activity
O=c1c2ccccc2[nH]c(=S)n1CCN1CCC(=C(c2ccc(F)cc2)c2ccc(F)cc2)CC1 | 101%
O=C1NC(=O)C(c2cn(CCCn3ccnc3)c3ccccc23)=C1Nc1ccccc1 | 102%
O=C1NC(=O)C(c2cn(CCCO)c3ncccc23)=C1c1cnccn1 | 102%
NCCNc1ncc(C(N)=O)c(Nc2cccc(C(F)(F)F)c2)n1 | 92.9%
Oc1ccc(-c2nc(-c3ccncc3)c(-c3ccc(F)cc3)[nH]2)cc1 | 99%
Cn1sc(=O)n(Cc2ccccc2)c1=O | 107%
Cc1ccc(NC(=O)c2ccc(CN3CCN(C)CC3)cc2)cc1Nc1nc(-c2cccnc2)cs1 | 90.3%
Nc1[nH]nc2nc3ccccc3nc12 | 95.2%
O=C(O)c1ccc2c3c1cccc3c(=O)n1c3ccccc3nc21 | 104%
COc1ccc(C(=O)Nc2sc3c(c2C(N)=O)CCCC3)cc1OC | 108%
CCOC(=O)c1c(C)[nH]c(/C=C2\C(=O)Nc3ccccc32)c1C | 96.3%
Cc1ccc(Nc2nccc(N(C)c3ccc4c(C)n(C)nc4c3)n2)cc1S(N)(=O)=O | 94.1%
CN(C)c1ccc(C=C2C(=O)Nc3ccccc32)cc1 | 102%

Study 4
Structure (SMILES): CC(C)(C(=O)O)[C@H](NC(=O)Cc1cccc(I)c1)c1ccc2oc(=O)[nH]c2c1
Technique: Incucyte 3D growth
Concentration: 30 µM
Direction: higher = more growth
cell line | time | spheroid area
KP-4 | 192 h | 2.99e+07 a.u. and 3.06e+07 a.u. and 4.31e+07 a.u. and 2.97e+07 a.u. and 1.77e+07 a.u. and 3.42e+07 a.u.
IPC-298 | 216 h | 2.53e+07 a.u. and 3.2e+07 a.u. and 2.79e+07 a.u. and 2.85e+07 a.u. and 4.03e+07 a.u. and 2.47e+07 a.u.
MEL-JUSO | 372.52 h | 5.97e+07 a.u. and 4.63e+07 a.u. and 4.15e+07 a.u. and 4.06e+07 a.u. and 3.32e+07 a.u. and 4.81e+07 a.u.
NCI-H358 | 252 h | 8.97e+06 a.u. and 9.76e+06 a.u. and 1.25e+07 a.u. and 7.69e+06 a.u. and 8.8e+06 a.u.
NCI-H358 | 216 h | 6.05e+06 a.u. and 7.63e+06 a.u. and 8.23e+06 a.u. and 8.59e+06 a.u. and 7.29e+06 a.u. and 8.01e+06 a.u.
MEL-JUSO | 330.52 h | 3.04e+07 a.u. and 4.02e+07 a.u. and 4.85e+07 a.u. and 2.72e+07 a.u. and 3.43e+07 a.u. and 4.12e+07 a.u.
MEL-JUSO | 24.52 h | 9.21e+06 a.u. and 5.88e+06 a.u. and 9.3e+06 a.u. and 9.65e+06 a.u. and 9.11e+06 a.u. and 1.21e+07 a.u.
